# Assay results collected from several papers.
# Lines come from different studies, so protocols differ. ± marks the error that the study gave.
# gdpP residues 84-659: gdpP, residues 84-659 (Bacillus subtilis, UniProt P37484)
# ALB: Albumin (ALB, Bos taurus, UniProt P02769)
# Alpha-amylase: Alpha-amylase (Bacillus subtilis, UniProt P00691)
Compound,target,test,system,setting,how to read,measurement,value
CC(C)[C@H](NC(=O)COCC(=O)NCCCOCCOCCOCCCNC(=O)CCCC[C@@H]1SC[C@@H]2NC(=O)N[C@@H]21)C(=O)NC(c1ccc(C(=N)N)cc1)P(=O)(Oc1ccccc1)Oc1ccccc1 (some centres unmarked),"ST14 (Homo sapiens, UniProt Q9Y5Y6)","enzyme activity, inhibitor",,,,kinact/KI,60 M⁻¹ s⁻¹
CC(C)C[C@@H](NC(=O)[C@H]1CCCN1C(=O)[C@H](N)CC(=O)O)C(=O)N[C@H](CCCCN)C(=O)N[C@H](C)C(=O)N[C@H](CCCNC(=N)N)C(=O)N[C@H](Cc1c[nH]cn1)C(=O)N[C@@H](C(=O)N[C@H](CO)C(=O)N[C@@H](C(=O)N[C@H](Cc1c[nH]c2ccccc12)C(=O)N[C@H](Cc1ccc(O)cc1)C(N)=O)C(C)C)[C@H](C)O,"Microtubule-associated protein tau, PHF6 peptide (MAPT, Homo sapiens, UniProt P10636)",ThT fluorescence,,"500 µM, room temperature, 50 µM tau",,fibril formation inhibition,no inhibition
CCCN1CCc2cc(O)cc3c2[C@H]1Cc1ccc(O)c(O)c1-3,"Carbamate kinase (Giardia intestinalis, UniProt A8BB85)","enzyme activity, inhibitor, luminescence, ATP detection",Giardia lamblia,,,maximal inhibition,86.8%
Nc1nc(N)c2ncn([C@@H]3O[C@@H]4COP(=O)(O)O[C@H]5[C@@H](O)[C@H](n6cnc7c(N)nc(N)nc76)O[C@@H]5COP(=O)(O)O[C@H]4[C@H]3O)c2n1,gdpP residues 84-659,"substrate, HPLC",,"100 µM, 37 °C, upper limit if undegraded 24 h, with: enzyme 1 µM",,degradation rate,≤ 0.001 mol/min/mol enzyme
Cn1cc(-c2cccc(CN3CCC4(CC3)COc3c4ccc4c3CN([C@H]3CCC(=O)NC3=O)C4=O)c2)cn1,"GSPT1 (Homo sapiens, UniProt P15170)","degrader, HiBiT",HEK293,6 h,,Dmax,< 20%
O=C(Nc1cccc(-c2nn[nH]n2)c1)c1cc(-c2nn[nH]n2)cc(C(F)(F)F)c1,CTX-M-27 beta-lactamase,surface plasmon resonance,,,,Kd/Ki difference,> 3 fold
O=C(NCc1ccccc1Cn1cncn1)c1cn(Cc2ccccc2)c2ccccc12,"KAT5 (Homo sapiens, UniProt Q92993)",activator,,20 µM,,histone acetyltransferase activity,increased
COCCCN1CCc2c(Cc3ccc(Cl)cc3)[nH]c3c(OC(F)F)ccc(c23)C1=O,"PDE11A (Homo sapiens, UniProt Q9HCR9)",enzyme activity,,,baseline: IC50 PDE5A1 over PDE11A,selectivity ratio,100
O=C(O)COc1ccc(Cl)cc1,"Chloride channel protein (Torpedo marmorata, UniProt P21564, C212S)","chloride channel gating, inhibitor, kinetic model fit",,,baseline: drug-free channel,free energy lowering of closed state,~1.74 kcal/mol
C#CC[C@H](NC(=O)CNC(=O)[C@H](CO)NC(=O)[C@@H]1CCCCNC(=O)CCCC(=O)N[C@@H](CCSC)C(=O)N[C@@H](Cc2c[nH]c3ccccc23)C(=O)N2CCC[C@H]2C(=O)N[C@@H](Cc2c[nH]cn2)C(=O)N[C@@H](CCCNC(=N)N)C(=O)N[C@@H](C(C)C)C(=O)N[C@@H]([C@@H](C)O)C(=O)N[C@@H](C)C(=O)N(C)[C@@H](C)C(=O)N1)C(=O)O,"Microtubule-associated protein 1 light chain 3 alpha (Homo sapiens, UniProt Q9H492)",fluorescence polarization,,,baseline: cyclic over linear,binding energy from cyclization,~0.7 kcal/mol
O=C([N-]c1nc2ccccc2[nH]1)c1cnccn1.[Cl-].[Ru+2].c1ccc(P(c2ccccc2)c2ccccc2)cc1.c1ccc(P(c2ccccc2)c2ccccc2)cc1,ALB,tryptophan fluorescence quenching,,concentration not given,,number of binding sites,0.93
O=C(CCCC[C@@H]1SC[C@@H]2NC(=O)N[C@@H]21)NCCCCCCCCN1[C@H]2[C@H](O)[C@@H](O)[C@H](O[C@@H]3OC[C@@H](O)[C@H](O)[C@H]3O)C[C@H]21 (some centres unmarked),"Exo-1,4-beta-xylosidase xlnD (xlnD, Emericella nidulans, UniProt Q5BAS1)",covalent inhibitor,Aspergillus nidulans,"pH 4.5, ambient, with: 4MU-β-D-xyloside",,kinact,0.0002 s⁻¹
O=C(O)c1cc(CCc2cc(O)ccc2O)ccc1O,"CRISPR-associated endonuclease Cas9/Csn1 (cas9, Streptococcus pyogenes serotype M1, UniProt Q99ZW2)",enzyme activity,,concentration not given,,activity,inactive
Nc1nc2ncc(CNc3ccc(C(=O)N[C@@H](CCC(=O)NCCOCCOCCNC(=O)CN4CCN5CCN(CC4)CC(=O)[O][Al]([18F])[O]C(=O)C5)C(=O)O)cc3)nc2c(=O)[nH]1,"FOLR1 (Homo sapiens, UniProt P15328)",radioligand binding,KB xenograft homogenate,"concentration not given, with: self-block 5 µM",baseline: total binding,nondisplaceable binding,< 1%
CS(C)(=O)=Nc1ccc(-c2ccc(-c3nc4cc(O[C@@H]5CO[C@H]6[C@@H]5OC[C@H]6O)[nH]c4cc3F)cc2)cc1,"PRKAA2/PRKAB1, with gamma1 (Homo sapiens, UniProt P54646+Q9Y478)","enzyme activity, activator",,"60 min, 50% above basal activity, with: ATP 50 µM",,EC150,0.376 nM
O=C(CSc1nnc(-c2cccnc2)n1C1CC1)N1CCc2cc(Br)ccc21,"Orco (Drosophila melanogaster, UniProt Q9VNB5)","calcium mobilization, agonist",HEK293 expressing Orco,,baseline: VUAA1 maximum,efficacy,98%
NC(=NN=Cc1cccs1)[S][Ru+]([Cl])([P](c1ccccc1)(c1ccccc1)c1ccccc1)[P](c1ccccc1)(c1ccccc1)c1ccccc1.[Cl-],ALB,fluorescence quenching,,"with: ibuprofen, site II marker",,Stern-Volmer constant,1140 M⁻¹
CC(=O)NC(Cc1ccc(Br)c(Cl)c1)C(=O)N[C@@H](C)C(=O)N1CCC[C@H]1C(=O)N1CCC[C@H]1C(=O)N[C@@H](CCC(=O)O)C(=O)N[C@@H](Cc1c[nH]cn1)C(=O)N[C@@H](CO)C(=O)N[C@H](C(=O)N[C@@H](C)C(N)=O)[C@@H](C)OP(=O)(O)O (some centres unmarked),"KDR (Homo sapiens, UniProt P35968)",,,10 µM,,inhibition,5.74 ± 0.18%
CCCCC/C=C\C/C=C\C/C=C\C/C=C\CCCC(=O)NC(CO)C(=O)O (stereo in doubt),"KCNQ2 (Homo sapiens, UniProt O43526, R291Q)","ion current, two-electrode voltage clamp",,10 µM,baseline: wild type,Gmax increase,decreased
CC(C)CC(=O)NC1CCCC1=O (centres unmarked),"rhlR (Pseudomonas aeruginosa, UniProt P54292)","reporter gene, agonist, rhlI-lacZ reporter",Escherichia coli,,,maximum activation,100%
Nc1nc(N)c2ncn([C@@H]3O[C@@H]4COP(=O)(O)O[C@H]5[C@@H](O)[C@H](n6cnc7c(N)ncnc76)O[C@@H]5COP(=O)(O)O[C@H]4[C@H]3O)c2n1,gdpP residues 84-659,HPLC,,concentration not given,"baseline: c-di-AMP, higher = slower hydrolysis",hydrolysis rate fold decrease,2.2
CC(C)C[C@H](NC(=O)CNC(=O)[C@H](CCC(N)=O)NC(=O)CNC(=O)CNC(=O)CNC(=O)CNC(=O)CNC(=O)CNC(=O)CNC(=O)CNC(=O)CNC(=O)CNC(=O)[C@H](CO)NC(=O)[C@H](C)NC(=O)[C@H](CC(C)C)NC(=O)[C@H](CC(=O)O)NC(=O)[C@H](CC(C)C)NC(=O)[C@H](C)NC(=O)[C@H](CC(=O)O)NC(=O)[C@H](C)NC(=O)[C@H](CC(C)C)NC(=O)CNC(=O)[C@H](CCC(N)=O)NC(=O)COCCNC(=S)Nc1ccc2c(c1)C(=O)OC21c2ccc(O)cc2Oc2cc(O)ccc21)C(=O)N[C@@H](C)C(=O)N[C@@H](CC(=O)O)C(=O)N[C@@H](C)C(=O)N[C@@H](CC(C)C)C(=O)N[C@@H](CC(=O)O)C(=O)N[C@@H](CC(C)C)C(=O)N[C@@H](C)C(=O)N[C@@H](CO)C(N)=O,"14-3-3-like protein C (Nicotiana tabacum, UniProt P93343)","bivalent over monovalent peptide, fluorescence polarization",,with: fluorescein-labelled ExoS peptide,baseline: monovalent peptide,affinity increase,20 fold
COc1cc(COc2ccc3c(C)cc(=O)oc3c2)cc(OC)c1OC,"Nucleoside transporter 1 (Plasmodium vivax, UniProt A5K8B0, D23E)","adenosine uptake, inhibitor",,D23E mutant,baseline: D23E mutant over wild type,IC50 ratio,~3.5 fold
CC(C)P(=S)(NP(=S)(C(C)C)C(C)C)C(C)C,Alpha-amylase,"tryptophan fluorescence, fluorescence quenching",,"0.20 mg/mL, 298 K",,maximum emission wavelength,335 nm
Nc1ncnc2c1ncn2[C@@H]1O[C@H](COP(=O)(O)OP(=O)(O)OC[C@H]2O[C@@H](O)[C@H](O)[C@@H]2O)[C@@H](O)[C@H]1O,"Protein mono-ADP-ribosyltransferase PARP14, macrodomain 2 (PARP14, Homo sapiens, UniProt Q460N5)",binding,,,,ΔG,-7.27 kcal/mol
CCN(Cc1ccccc1)C(=O)CCc1nc(CN2CCN(C(=O)Cc3ccc(OC)c(OC)c3)CC2)no1,"KCNQ2 (Homo sapiens, UniProt O43526)","potassium current, activator, whole-cell patch clamp","CHO, stable",20 µM,baseline: current before compound,current fold increase,2.08 ± 0.1
CCOC(=O)/C=C/[C@H](C[C@@H]1CCNC1=O)NC(=O)[C@H](Cc1ccccc1)NC(=O)[C@H](COC(C)(C)C)NC(=O)OCc1ccccc1,"Genome polyprotein, 3C protease (Encephalomyocarditis virus, UniProt P03304)","protease activity, cell-based reporter",,,,FLuc reporter expression,no effect
CC1=C(C)[C@@H](Oc2c(F)cc3c(C)cc(=O)oc3c2F)OC1=O,"RMS3 (Lathyrus oleraceus, UniProt A0A109QYD3)","enzyme activity, substrate, DiFMU release",,pre-steady state,,K1/2,17.4 µM
CC(C)P(=S)(NP(=[Se])(C(C)C)C(C)C)C(C)C,Alpha-amylase,fluorescence quenching,,"concentration not given, pH 6.8, 310 K",,ΔG of binding,-3.94 kcal/mol
O=C(O)c1cccc(Nc2nc(-c3ccc(Cl)c(Cl)c3)cs2)c1,"Capsid scaffolding protein, protease domain (Human herpesvirus 8 type P, UniProt Q2HRB6)",inhibitor,,,,Vmax,decreased
Nc1ncnc2c1ccn2[C@@H]1O[C@@H]2COP(=O)(O)O[C@H]3[C@@H](O)[C@H](n4ccc5c(N)ncnc54)O[C@@H]3COP(=O)(O)O[C@H]2[C@H]1O,gdpP residues 84-659,"substrate, HPLC",,"100 µM, 37 °C, upper limit if undegraded 24 h, with: enzyme 1 µM",,degradation rate,2.3 ± 0.2 mol/min/mol enzyme
CC(=O)N[C@@H](Cc1c[nH]c2ccccc12)C(=O)N[C@@H](CCC(=O)O)C(=O)N[C@@H](Cc1c[nH]cn1)C(=O)N[C@@H](CC(=O)O)C(=O)Nc1ccc2c(C)cc(=O)oc2c1,"Caspase-8 (CASP8, Homo sapiens, UniProt Q14790)","substrate cleavage, substrate, fluorogenic AMC release",,enzyme 0.25 activity units/µL,,Vmax,280 ± 9.36 RFU/min
